Measurements pooled from the literature.
Parts stem from different laboratories: compare values within a part only. Changes are numbered by the printed parent chain.
UniProt P05979, sequence (whole entry, looked up): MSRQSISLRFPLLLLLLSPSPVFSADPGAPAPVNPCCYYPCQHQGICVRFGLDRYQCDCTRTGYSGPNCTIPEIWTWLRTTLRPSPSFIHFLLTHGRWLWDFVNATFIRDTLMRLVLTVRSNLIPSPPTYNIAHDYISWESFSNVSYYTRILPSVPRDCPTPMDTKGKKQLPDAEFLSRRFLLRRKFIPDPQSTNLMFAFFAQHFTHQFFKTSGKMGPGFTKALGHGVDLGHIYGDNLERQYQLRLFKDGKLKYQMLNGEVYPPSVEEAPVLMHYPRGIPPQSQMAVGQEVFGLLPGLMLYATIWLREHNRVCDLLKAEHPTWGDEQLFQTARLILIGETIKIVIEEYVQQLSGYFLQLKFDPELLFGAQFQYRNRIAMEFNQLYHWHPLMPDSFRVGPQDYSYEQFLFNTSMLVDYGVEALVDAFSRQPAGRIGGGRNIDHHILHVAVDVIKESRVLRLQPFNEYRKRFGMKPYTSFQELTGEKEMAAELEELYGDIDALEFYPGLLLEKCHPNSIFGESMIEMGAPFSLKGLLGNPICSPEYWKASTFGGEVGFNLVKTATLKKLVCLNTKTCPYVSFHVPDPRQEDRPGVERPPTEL
UniProt Q7L7X3, sequence (whole entry, looked up): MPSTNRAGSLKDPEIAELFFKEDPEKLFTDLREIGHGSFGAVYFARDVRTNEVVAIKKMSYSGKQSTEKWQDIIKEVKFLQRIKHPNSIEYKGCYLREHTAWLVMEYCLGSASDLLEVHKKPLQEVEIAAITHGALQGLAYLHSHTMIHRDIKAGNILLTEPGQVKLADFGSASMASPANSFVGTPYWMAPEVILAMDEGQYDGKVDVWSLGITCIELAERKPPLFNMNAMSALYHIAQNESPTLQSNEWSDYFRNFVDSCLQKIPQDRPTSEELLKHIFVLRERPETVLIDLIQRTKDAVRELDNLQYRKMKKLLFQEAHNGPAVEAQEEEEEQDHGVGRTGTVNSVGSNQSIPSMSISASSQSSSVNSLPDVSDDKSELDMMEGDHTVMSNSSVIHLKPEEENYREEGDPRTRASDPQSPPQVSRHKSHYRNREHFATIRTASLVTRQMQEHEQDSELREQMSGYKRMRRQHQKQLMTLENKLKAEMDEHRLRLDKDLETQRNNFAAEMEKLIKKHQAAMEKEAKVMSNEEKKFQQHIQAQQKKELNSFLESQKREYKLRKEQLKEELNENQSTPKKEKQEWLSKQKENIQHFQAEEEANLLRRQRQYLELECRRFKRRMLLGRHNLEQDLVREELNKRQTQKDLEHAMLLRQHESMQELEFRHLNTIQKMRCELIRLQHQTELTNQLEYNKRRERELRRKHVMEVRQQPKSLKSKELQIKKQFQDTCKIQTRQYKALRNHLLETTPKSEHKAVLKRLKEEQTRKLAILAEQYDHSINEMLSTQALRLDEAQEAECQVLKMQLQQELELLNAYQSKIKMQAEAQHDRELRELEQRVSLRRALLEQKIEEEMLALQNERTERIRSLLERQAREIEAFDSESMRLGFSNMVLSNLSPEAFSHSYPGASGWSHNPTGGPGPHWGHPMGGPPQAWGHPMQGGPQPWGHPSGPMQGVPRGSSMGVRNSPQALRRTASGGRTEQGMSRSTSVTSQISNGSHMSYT

Set 1
Target: CCNE2, cyclin fold, Cln2 fusion (human)
Technique: yeast growth competition, sequencing
Medium: yeast
Setting: strong parent motif
Relative to: not given
Direction: higher = stronger binding
Endpoint: normalised enrichment score
Parent: viral docking peptide; TSVRRALFTGGSD; partner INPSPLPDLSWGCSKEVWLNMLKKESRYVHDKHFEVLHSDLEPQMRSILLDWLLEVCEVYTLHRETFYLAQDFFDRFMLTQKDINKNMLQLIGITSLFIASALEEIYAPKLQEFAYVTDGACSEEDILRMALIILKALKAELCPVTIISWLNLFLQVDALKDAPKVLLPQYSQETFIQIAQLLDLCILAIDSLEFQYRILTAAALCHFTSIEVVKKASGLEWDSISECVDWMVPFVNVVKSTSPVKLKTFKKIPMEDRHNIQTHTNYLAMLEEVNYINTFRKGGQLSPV
TSVQRALFTGGSD [R4Q]: 0.672
TSVYRALFTGGSD [R4Y]: 0.604
TDVRRALFTGGSD [S2D]: 2.38
TSVRRADFTGGSD [L7D]: -0.0709
TFVRRALFTGGSD [S2F]: 2.39
TSVRRALFTGFSD [G11F]: 3.34
TSVRRALKTGGSD [F8K]: 0.00642
TSVRRALFTGRSD [G11R]: 2.75

Set 2
Target: vanadate, free oxyanion
Technique: microfluidic competitive inhibition
Medium: in vitro, cell-free expressed
Tested at: not given
Setting: derived from inhibition constants, unchanged parent 676 nM
Direction: lower = stronger binding
Endpoint: oxyanion analog dissociation constant
Parent: PafA, mature enzyme, eGFP fusion (Elizabethkingia meningoseptica, UniProt Q9KJX5); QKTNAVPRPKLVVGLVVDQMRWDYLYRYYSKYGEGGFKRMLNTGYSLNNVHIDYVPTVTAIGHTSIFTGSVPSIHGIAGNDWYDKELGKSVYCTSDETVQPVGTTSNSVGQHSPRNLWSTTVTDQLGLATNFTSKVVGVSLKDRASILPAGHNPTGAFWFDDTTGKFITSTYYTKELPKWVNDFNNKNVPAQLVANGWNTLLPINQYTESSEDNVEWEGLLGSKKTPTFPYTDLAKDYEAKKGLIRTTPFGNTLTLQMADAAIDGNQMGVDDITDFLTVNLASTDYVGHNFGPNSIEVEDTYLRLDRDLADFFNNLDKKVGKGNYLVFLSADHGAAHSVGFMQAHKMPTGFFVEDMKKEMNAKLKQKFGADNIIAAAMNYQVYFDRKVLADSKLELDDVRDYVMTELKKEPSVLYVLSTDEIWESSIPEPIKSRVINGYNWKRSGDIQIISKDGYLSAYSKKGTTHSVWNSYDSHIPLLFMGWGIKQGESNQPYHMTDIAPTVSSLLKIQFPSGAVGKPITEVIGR
N491G: 718 nM
G35V: 586 nM
V287G: 1.15 µM
V55A: 654 nM
S330V: 1.18 µM
S30V: 546 nM
K89G: 813 nM
K442G: 935 nM

Other studies, line by line
Effect on: cell-free assay
CNC(=O)c1ccc(-c2cnn3ccc(C(=O)N(C)c4ccc(Cl)c(C(=O)OC)c4)cc23)cc1
IC50 (PTGS1 (Ovis aries, UniProt P05979)): > 30 µM

Cn1cncc1[C@@](O)(COc1ccc(C#N)cc1-c1ccc(OC(F)(F)F)cc1)c1ccc(C#N)cc1
remaining binding (TAOK1 (Homo sapiens, UniProt Q7L7X3); competition with immobilised ligand; 1 µM): 100%

For quick reference, copied from above (other studies, line by line):
CNC(=O)c1ccc(-c2cnn3ccc(C(=O)N(C)c4ccc(Cl)c(C(=O)OC)c4)cc23)cc1
IC50 (PTGS1 (Ovis aries, UniProt P05979)): > 30 µM

Cn1cncc1[C@@](O)(COc1ccc(C#N)cc1-c1ccc(OC(F)(F)F)cc1)c1ccc(C#N)cc1
remaining binding (TAOK1 (Homo sapiens, UniProt Q7L7X3); competition with immobilised ligand; 1 µM): 100%
